{"data": "Experimental data collected from several papers", "note": "± marks the error that the study gave."}
{"SMILES": "CC1(C)CCN(Cc2ccc(C(=O)NC[C@]3(O)CCCN(c4cc(NCc5ccccc5)ncn4)C3)c(O)c2)CC1", "cell line": "Caco-2", "setting": "10 µM, 90 min, basolateral to apical", "quantity": "mass recovery", "value": "92.4%"}
{"SMILES": "CCCCCCCCCC(=O)NCCCC[C@@H](NC(=O)[C@@H](CC(C)C)NC(=O)[C@@H](CCCCN)NC(=O)[C@@H](CCCCNC(=O)[C@@H](CC(C)C)NC(=O)[C@@H](CCN)NC(=O)[C@@H](CCCCNC(=O)[C@@H](Cc1ccccc1)NC(=O)[C@H](N)CCCN)NC(=O)[C@@H](Cc1ccccc1)NC(=O)[C@H](N)CCCN)NC(=O)[C@@H](CC(C)C)NC(=O)[C@@H](CCN)NC(=O)[C@@H](CCCCNC(=O)[C@@H](Cc1ccccc1)NC(=O)[C@H](N)CCCN)NC(=O)[C@@H](Cc1ccccc1)NC(=O)[C@H](N)CCCN)C(N)=O", "cell line": "human red blood cells", "assay": "haemolysis", "setting": "4 h, pH 7.4, 25 °C", "quantity": "minimum haemolytic concentration", "value": "500 µg/mL"}
{"SMILES": "CC1(C)CCCC(C)(C2CCC3(C)C2C(O)CC2C4(C)CCC(O)C(C)(C)C4C(OC(=O)Nc4ccccc4)CC23C)O1 (stereo not shown)", "cell line": "Hep3B", "assay": "cell growth or viability, MTT", "setting": "24 h", "quantity": "IC50", "value": "> 30 µM"}
{"SMILES": "O=C1OC2(c3ccccc31)c1cc(I)c(O)c(I)c1Oc1c2cc(I)c(O)c1I", "cell line": "3D forebrain organoid", "assay": "morphology", "setting": "3.0 µM", "quantity": "toxicity", "value": "not toxic"}
{"SMILES": "C#Cc1cccc(Nc2ncnc3cc(OC)c(OCCCN4CCOCC4)cc23)c1", "cell line": "Caco-2", "setting": "10 µM, 90 min, 37 °C", "quantity": "Papp (A to B)", "value": "91.3 ± 0.2 nm/s"}
{"SMILES": "COc1ccc(C=CC(=O)OC2CC3(C)C(CC(O)C4C(C5(C)CCCC(C)(C)O5)CCC43C)C3(C)CCC(OC(=O)C=Cc4ccc(OC)cc4)C(C)(C)C23)cc1 (stereo not shown)", "cell line": "Hep3B", "assay": "cell growth or viability, MTT", "setting": "24 h", "quantity": "IC50", "value": "> 30 µM"}
{"SMILES": "Nc1ncnc2c1c(C(F)(F)F)cn2[C@@H]1O[C@H](CO)[C@@H](O)[C@H]1O", "cell line": "MRC-5 SV2", "assay": "cytotoxicity, resazurin", "test system": "medium with 5% FBS", "setting": "72 h", "quantity": "EC50", "value": "4.32 µM"}
{"SMILES": "CC(C)=CCc1cc(-c2coc3cc(O)c(CC=C(C)C)c(O)c3c2=O)ccc1O", "cell line": "A549", "assay": "cell growth or viability, MTT", "setting": "25 µg/mL", "quantity": "viability", "value": "108%"}
{"SMILES": "CCCCCCc1ccc(S(=O)(=O)N2CC2C(=O)OC)cc1 (stereo not shown)", "cell line": "Balb/c 3T3 fibroblasts", "assay": "cytotoxicity, neutral red uptake", "test system": "DMEM with 5% FBS", "setting": "24 h", "quantity": "IC50", "value": "6.3 ± 4.2 µM"}
{"SMILES": "CCCN(CC(=O)N(CCC)CC(=O)N(CCC)CC(=O)N(CCC)CC(=O)N(CC(=O)N(CCC)CC(=O)N(CCC)CC(=O)N(CCC)CC(=O)N(CCC)CC(=O)N(CC(N)=O)Cc1cn(CCCNC(=O)CCCOc2cccc(-c3nc4ccc(-c5nc6ccc(N7CCN(C)CC7)cc6[nH]5)cc4[nH]3)c2)nn1)Cc1cn(CCCNC(=O)CCCOc2cccc(-c3nc4ccc(-c5nc6ccc(N7CCN(C)CC7)cc6[nH]5)cc4[nH]3)c2)nn1)C(=O)CNCc1cn(CCCNC(=O)CCCOc2cccc(-c3nc4ccc(-c5nc6ccc(N7CCN(C)CC7)cc6[nH]5)cc4[nH]3)c2)nn1", "cell line": "C2C12", "assay": "flow cytometry", "setting": "5 µM, 14 h", "quantity": "propidium iodide-only positive cells", "value": "4.7%"}
{"SMILES": "CCCCCCc1ccc(S(=O)(=O)N2CC2C(=O)N2CCOCC2)cc1 (stereo not shown)", "cell line": "Balb/c 3T3 fibroblasts", "assay": "cytotoxicity, neutral red uptake", "test system": "DMEM with 5% FBS", "setting": "24 h", "quantity": "IC50", "value": "8.6 ± 0.7 µM"}
{"SMILES": "CC(=O)N[C@H](C(=O)N[C@H](C(=O)N[C@@H](CCCNC(=N)N)C(=O)N1Cc2ccccc2C[C@H]1C(=O)N[C@@H](Cc1ccccc1)C(N)=O)C1CCCCC1)C(C)C", "cell line": "human PBMC", "assay": "Bio-Plex multiplex, measured: IL-4", "setting": "250 µg/mL, 24 h", "quantity": "cytokine level", "value": "1.2 ± 0.6 pg/mL"}
{"SMILES": "CCCN(CC(=O)N(CCC)CC(=O)N(CCC)CC(=O)N(CCC)CC(=O)N(CC(=O)N(CCC)CC(=O)N(CCC)CC(=O)N(CCC)CC(=O)N(CCC)CC(=O)N(CC(=O)N(CCC)CC(=O)N(CCC)CC(=O)N(CCC)CC(=O)N(CCC)CC(=O)N(CC(N)=O)Cc1cn(CCCNC(=O)CCCOc2cccc(-c3nc4ccc(-c5nc6ccc(N7CCN(C)CC7)cc6[nH]5)cc4[nH]3)c2)nn1)Cc1cn(CCCNC(=O)CCCOc2cccc(-c3nc4ccc(-c5nc6ccc(N7CCN(C)CC7)cc6[nH]5)cc4[nH]3)c2)nn1)Cc1cn(CCCNC(=O)CCCOc2cccc(-c3nc4ccc(-c5nc6ccc(N7CCN(C)CC7)cc6[nH]5)cc4[nH]3)c2)nn1)C(=O)CNCc1cn(CCCNC(=O)CCCOc2cccc(-c3nc4ccc(-c5nc6ccc(N7CCN(C)CC7)cc6[nH]5)cc4[nH]3)c2)nn1", "cell line": "C2C12", "assay": "flow cytometry", "setting": "5 µM, 14 h", "quantity": "propidium iodide-only positive cells", "value": "1.4%"}
{"note": "Repeated from above:"}
{"SMILES": "CCCN(CC(=O)N(CCC)CC(=O)N(CCC)CC(=O)N(CCC)CC(=O)N(CC(=O)N(CCC)CC(=O)N(CCC)CC(=O)N(CCC)CC(=O)N(CCC)CC(=O)N(CC(N)=O)Cc1cn(CCCNC(=O)CCCOc2cccc(-c3nc4ccc(-c5nc6ccc(N7CCN(C)CC7)cc6[nH]5)cc4[nH]3)c2)nn1)Cc1cn(CCCNC(=O)CCCOc2cccc(-c3nc4ccc(-c5nc6ccc(N7CCN(C)CC7)cc6[nH]5)cc4[nH]3)c2)nn1)C(=O)CNCc1cn(CCCNC(=O)CCCOc2cccc(-c3nc4ccc(-c5nc6ccc(N7CCN(C)CC7)cc6[nH]5)cc4[nH]3)c2)nn1", "cell line": "C2C12", "assay": "flow cytometry", "setting": "5 µM, 14 h", "quantity": "propidium iodide-only positive cells", "value": "4.7%"}
